Published values gathered from unrelated publications.
A part holds a random share of what one study measured.
Sequence of UniProt O94768 (whole entry, looked up): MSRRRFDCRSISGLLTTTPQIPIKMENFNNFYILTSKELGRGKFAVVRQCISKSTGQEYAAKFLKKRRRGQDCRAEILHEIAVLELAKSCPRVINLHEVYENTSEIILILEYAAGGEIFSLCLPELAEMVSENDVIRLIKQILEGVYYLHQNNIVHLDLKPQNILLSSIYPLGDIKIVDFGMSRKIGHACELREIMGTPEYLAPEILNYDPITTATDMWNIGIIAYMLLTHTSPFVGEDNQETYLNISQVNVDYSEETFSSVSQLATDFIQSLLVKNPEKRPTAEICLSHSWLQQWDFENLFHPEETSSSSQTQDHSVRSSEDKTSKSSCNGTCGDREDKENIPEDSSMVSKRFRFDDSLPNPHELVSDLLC
Sequence of UniProt P42681 (whole entry, looked up): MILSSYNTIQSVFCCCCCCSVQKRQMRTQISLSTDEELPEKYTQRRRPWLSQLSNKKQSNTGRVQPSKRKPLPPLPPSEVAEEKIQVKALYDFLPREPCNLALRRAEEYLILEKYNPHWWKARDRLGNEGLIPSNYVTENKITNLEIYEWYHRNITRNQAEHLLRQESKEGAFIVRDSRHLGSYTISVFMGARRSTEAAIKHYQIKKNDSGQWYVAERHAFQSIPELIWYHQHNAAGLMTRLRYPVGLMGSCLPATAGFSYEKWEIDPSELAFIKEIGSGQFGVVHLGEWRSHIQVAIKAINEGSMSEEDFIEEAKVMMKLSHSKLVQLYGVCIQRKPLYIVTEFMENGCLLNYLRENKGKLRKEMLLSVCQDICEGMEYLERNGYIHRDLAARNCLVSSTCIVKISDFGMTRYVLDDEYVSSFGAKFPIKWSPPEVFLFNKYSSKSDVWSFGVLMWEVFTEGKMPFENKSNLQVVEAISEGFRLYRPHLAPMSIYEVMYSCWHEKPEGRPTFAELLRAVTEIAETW
Sequence of UniProt Q13153 (whole entry, looked up): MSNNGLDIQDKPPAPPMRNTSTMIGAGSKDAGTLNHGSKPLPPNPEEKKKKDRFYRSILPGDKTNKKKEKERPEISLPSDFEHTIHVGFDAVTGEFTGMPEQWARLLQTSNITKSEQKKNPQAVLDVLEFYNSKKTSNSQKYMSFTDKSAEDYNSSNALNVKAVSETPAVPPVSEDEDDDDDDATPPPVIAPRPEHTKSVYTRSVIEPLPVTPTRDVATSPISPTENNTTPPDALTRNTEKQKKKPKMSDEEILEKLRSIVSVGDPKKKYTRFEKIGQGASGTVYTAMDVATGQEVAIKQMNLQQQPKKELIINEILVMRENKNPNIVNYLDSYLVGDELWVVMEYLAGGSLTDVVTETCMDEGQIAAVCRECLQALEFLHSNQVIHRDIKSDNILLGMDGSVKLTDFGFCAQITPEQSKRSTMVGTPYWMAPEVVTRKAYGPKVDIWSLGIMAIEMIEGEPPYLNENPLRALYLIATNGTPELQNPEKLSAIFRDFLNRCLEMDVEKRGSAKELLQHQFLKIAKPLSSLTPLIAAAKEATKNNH
Sequence of UniProt Q8N752 (whole entry, looked up): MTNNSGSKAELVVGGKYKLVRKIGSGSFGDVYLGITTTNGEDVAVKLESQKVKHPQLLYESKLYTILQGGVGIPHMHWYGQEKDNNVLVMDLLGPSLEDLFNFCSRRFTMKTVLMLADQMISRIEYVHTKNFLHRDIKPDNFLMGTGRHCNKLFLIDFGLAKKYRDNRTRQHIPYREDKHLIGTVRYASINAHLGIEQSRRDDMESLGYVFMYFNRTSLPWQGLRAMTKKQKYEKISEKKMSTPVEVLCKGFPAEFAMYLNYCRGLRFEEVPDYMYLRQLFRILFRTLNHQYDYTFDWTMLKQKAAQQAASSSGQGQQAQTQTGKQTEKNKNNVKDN
Sequence of UniProt Q16539 (whole entry, looked up): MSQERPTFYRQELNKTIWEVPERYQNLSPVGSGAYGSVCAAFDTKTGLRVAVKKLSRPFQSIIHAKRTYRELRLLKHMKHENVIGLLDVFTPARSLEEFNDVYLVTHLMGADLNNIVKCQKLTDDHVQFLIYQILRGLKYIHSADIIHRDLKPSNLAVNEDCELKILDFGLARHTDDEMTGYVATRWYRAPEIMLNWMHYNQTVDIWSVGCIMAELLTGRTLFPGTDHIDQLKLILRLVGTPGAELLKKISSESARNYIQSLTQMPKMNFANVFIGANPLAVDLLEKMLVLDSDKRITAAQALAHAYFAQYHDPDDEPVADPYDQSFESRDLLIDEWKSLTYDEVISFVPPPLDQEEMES
Sequence of UniProt Q9H2X6 (whole entry, looked up): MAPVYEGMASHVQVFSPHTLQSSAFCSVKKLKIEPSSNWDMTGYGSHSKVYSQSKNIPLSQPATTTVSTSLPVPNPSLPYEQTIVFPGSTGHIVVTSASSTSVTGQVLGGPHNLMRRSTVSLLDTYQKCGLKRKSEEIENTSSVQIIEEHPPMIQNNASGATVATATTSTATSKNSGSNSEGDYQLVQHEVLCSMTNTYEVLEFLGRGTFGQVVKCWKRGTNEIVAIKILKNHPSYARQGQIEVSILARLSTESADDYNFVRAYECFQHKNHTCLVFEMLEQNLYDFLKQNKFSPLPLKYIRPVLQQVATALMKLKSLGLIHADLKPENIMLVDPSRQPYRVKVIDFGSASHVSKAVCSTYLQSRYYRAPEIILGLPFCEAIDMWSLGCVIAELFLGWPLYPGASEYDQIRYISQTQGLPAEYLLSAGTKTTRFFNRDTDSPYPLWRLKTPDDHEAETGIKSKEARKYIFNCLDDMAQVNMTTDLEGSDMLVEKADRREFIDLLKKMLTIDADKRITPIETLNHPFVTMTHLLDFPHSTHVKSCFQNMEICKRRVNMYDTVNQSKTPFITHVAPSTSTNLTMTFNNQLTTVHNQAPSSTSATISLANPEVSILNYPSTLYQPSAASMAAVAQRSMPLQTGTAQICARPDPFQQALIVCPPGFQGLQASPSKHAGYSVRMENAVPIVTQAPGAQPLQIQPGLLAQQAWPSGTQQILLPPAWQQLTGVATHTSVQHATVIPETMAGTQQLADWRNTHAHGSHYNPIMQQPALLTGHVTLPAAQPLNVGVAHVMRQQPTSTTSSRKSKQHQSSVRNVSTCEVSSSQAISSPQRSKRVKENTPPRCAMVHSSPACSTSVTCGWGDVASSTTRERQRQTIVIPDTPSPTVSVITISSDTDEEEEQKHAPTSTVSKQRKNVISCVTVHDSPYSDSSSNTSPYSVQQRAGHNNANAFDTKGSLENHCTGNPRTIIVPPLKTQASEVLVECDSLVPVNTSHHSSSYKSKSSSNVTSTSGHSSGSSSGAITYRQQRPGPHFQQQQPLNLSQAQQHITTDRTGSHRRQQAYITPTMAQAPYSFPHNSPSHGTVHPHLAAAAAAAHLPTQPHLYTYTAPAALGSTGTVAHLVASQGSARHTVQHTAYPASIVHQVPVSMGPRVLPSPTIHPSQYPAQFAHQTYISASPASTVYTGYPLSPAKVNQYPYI
Sequence of UniProt P21802 (whole entry, looked up): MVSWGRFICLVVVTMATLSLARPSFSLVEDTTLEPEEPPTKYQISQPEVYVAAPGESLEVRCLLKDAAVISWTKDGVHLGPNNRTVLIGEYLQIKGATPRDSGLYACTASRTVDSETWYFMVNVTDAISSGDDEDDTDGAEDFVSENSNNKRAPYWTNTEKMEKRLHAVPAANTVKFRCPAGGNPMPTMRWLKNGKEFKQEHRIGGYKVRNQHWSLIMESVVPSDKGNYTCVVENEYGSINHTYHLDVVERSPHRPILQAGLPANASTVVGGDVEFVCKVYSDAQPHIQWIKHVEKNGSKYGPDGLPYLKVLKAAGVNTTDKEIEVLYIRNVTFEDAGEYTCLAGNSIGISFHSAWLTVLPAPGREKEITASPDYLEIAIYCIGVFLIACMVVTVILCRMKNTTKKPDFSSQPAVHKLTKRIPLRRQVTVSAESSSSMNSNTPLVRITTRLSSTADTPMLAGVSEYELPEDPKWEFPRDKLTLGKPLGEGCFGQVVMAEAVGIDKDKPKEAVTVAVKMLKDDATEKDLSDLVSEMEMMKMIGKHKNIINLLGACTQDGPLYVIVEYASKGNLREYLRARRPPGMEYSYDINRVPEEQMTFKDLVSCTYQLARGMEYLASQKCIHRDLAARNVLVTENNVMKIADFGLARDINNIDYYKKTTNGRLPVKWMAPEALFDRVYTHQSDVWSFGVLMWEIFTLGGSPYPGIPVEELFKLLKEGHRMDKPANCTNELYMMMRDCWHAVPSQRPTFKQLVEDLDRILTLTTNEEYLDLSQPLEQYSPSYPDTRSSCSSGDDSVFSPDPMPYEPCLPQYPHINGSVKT
Sequence of UniProt Q9BRS2 (whole entry, looked up): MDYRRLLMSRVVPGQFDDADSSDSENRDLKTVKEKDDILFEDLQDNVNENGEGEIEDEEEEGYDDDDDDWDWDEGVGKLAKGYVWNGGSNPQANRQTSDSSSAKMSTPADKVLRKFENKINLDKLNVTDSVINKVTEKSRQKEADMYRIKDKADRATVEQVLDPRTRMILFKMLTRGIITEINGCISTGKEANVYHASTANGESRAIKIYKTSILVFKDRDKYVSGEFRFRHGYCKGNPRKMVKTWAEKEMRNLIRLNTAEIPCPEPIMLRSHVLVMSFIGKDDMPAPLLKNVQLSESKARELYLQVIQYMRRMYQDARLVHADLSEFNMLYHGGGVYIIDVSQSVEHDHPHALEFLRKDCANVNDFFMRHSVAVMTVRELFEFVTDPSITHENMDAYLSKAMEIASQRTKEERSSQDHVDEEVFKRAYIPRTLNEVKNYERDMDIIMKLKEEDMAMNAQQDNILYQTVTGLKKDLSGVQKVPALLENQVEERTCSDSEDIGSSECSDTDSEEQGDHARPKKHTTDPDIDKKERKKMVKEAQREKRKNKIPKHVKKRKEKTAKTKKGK

Series 1 — effect on: enzyme activity; action: inhibitor; tested at: 0.5 µM; relative to: control
Target: Phosphorylase b kinase gamma catalytic chain, liver/testis isoform (PHKG2, Homo sapiens, UniProt P15735)
Residues (P15735 1-406): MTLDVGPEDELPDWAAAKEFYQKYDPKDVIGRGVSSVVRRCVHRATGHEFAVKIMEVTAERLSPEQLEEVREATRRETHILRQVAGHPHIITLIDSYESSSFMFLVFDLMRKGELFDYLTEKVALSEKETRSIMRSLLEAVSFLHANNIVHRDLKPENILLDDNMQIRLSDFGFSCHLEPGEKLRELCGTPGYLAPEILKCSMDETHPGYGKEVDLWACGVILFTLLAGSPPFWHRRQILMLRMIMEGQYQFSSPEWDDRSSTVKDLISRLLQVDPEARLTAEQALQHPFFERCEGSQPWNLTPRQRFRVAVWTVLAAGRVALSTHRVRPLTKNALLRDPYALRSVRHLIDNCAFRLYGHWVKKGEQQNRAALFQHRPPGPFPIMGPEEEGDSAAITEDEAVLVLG
| Structure (SMILES) | remaining activity [%] |
| --- | --- |
| N#C/C(=C\c1ccc(O)c(O)c1)C(=O)NCc1ccccc1 | 96 |
| COc1cc2c(cc1OC)-c1[nH]nc(Nc3cccc(F)c3)c1C2 | 121 |
| Nc1cccc(-c2cc3c(Oc4cccc(O)c4)ncnc3[nH]2)c1 | 109 |
| Cn1nc2c3c(cccc31)C(=O)c1ccccc1-2 | 95.4 |
| O=C(NC(NC(=S)Nc1ccc(F)c([N+](=O)[O-])c1)C(Cl)(Cl)Cl)C(c1ccccc1)c1ccccc1 (stereo not shown) | 109 |
| Cc1cc2ncc(-c3ccccc3)nc2cc1C | 83.9 |
| CN(C)C[C@H]1CCn2c(c(C3=C(c4cn(C)c5ccccc45)C(=O)NC3=O)c3ccccc32)C1 | 104 |
| c1ccc(-c2[nH]ncc2-c2ccnc3ccccc23)nc1 | 97.7 |
| O=c1cc(-c2cccc3c2Sc2ccccc2S3)oc(N2CCOCC2)c1 | 98.6 |
| Ic1cccc(CSc2nnc(-c3ccncc3)o2)c1 | 105 |
| CN([C@@H](Cc1ccc(OS(=O)(=O)c2cccc3cnccc23)cc1)C(=O)N1CCN(c2ccccc2)CC1)S(=O)(=O)c1cccc2cnccc12 | 101 |
| O=C1C(Cl)=C(N2C(=O)CCC2=O)C(=O)c2ccccc21 | 100 |
| O=C1c2ccccc2-c2n[nH]c3cccc1c23 | 76.5 |

Series 2 — cell line: Huh-7; tested at: 10 µM; time: 24 h
| Structure (SMILES) | viability [%] |
| --- | --- |
| CN(C)CC/C=C1/c2ccccc2Sc2ccc(Cl)cc21 | 95.8 |
| CCN(CC)CCOC(=O)C(c1ccccc1)c1ccccc1 | 89.6 |
| NCc1ccc(S(N)(=O)=O)cc1 | 104 |
| Nc1ccn([C@@H]2O[C@H](CO)[C@@H](O)[C@@H]2O)c(=O)n1 | 50.4 |
| Nc1nc2nc[nH]c2c(=S)[nH]1 | 68.6 |
| Cc1cc2nc3c(=O)[nH]c(=O)nc-3n(C[C@H](O)[C@H](O)[C@H](O)CO)c2cc1C | 101 |
| CCOC(=O)OC(C)OC(=O)[C@@H]1N2C(=O)[C@@H](NC(=O)[C@H](N)c3ccccc3)[C@H]2SC1(C)C (stereo partly shown) | 96.7 |
| CCN(CC)CCNc1ccc(CO)c2sc3ccccc3c(=O)c12 | 71.9 |
| C[C@](N)(Cc1ccc(O)c(O)c1)C(=O)O | 86.6 |
| C[C@@](Cc1ccc(O)c(O)c1)(NN)C(=O)O | 94.1 |
| CCn1nc(C(=O)O)c(=O)c2cc3c(cc21)OCO3 | 103 |
| CCN(CC)CCNC(=O)c1cc(S(C)(=O)=O)ccc1OC | 85.7 |

Series 3 — effect on: cell-free assay; technique: competition with immobilised ligand; tested at: 1 µM
Structure (SMILES): CCC(=O)N[C@H]1CC[C@@H](C(=O)N(C)c2ccc(-c3nc4ccccc4o3)cc2)C1
| target | remaining binding [%] |
| --- | --- |
| Serine/threonine-protein kinase 36 (STK36, Homo sapiens, UniProt Q9NRP7) | 100 |
| Dual specificity protein kinase CLK4 (CLK4, Homo sapiens, UniProt Q9HAZ1) | 94 |
| Serine/threonine-protein kinase RIO1 (RIOK1, Homo sapiens, UniProt Q9BRS2) | 99 |
| Serine/threonine-protein kinase ICK (CILK1, Homo sapiens, UniProt Q9UPZ9) | 70 |
| Serine/threonine-protein kinase Sgk1 (SGK1, Homo sapiens, UniProt O00141) | 100 |
| Casein kinase I isoform alpha-like (CSNK1A1L, Homo sapiens, UniProt Q8N752) | 100 |
| Mitogen-activated protein kinase 13 (MAPK13, Homo sapiens, UniProt O15264) | 85 |
| Serine/threonine-protein kinase MRCK alpha (CDC42BPA, Homo sapiens, UniProt Q5VT25) | 87 |
| Serine/threonine-protein kinase SIK2 (SIK2, Homo sapiens, UniProt Q9H0K1) | 78 |
| Serine/threonine-protein kinase VRK2 (VRK2, Homo sapiens, UniProt Q86Y07) | 90 |
| Ephrin type-B receptor 1 (EPHB1, Homo sapiens, UniProt P54762) | 100 |
| Mitogen-activated protein kinase 14 (MAPK14, Homo sapiens, UniProt Q16539) | 100 |
| MAP kinase-interacting serine/threonine-protein kinase 1 (MKNK1, Homo sapiens, UniProt Q9BUB5) | 80 |
| Dual specificity protein kinase CLK2 (CLK2, Homo sapiens, UniProt P49760) | 95 |
| Serine/threonine-protein kinase TBK1 (TBK1, Homo sapiens, UniProt Q9UHD2) | 78 |
| Protein kinase C iota type (PRKCI, Homo sapiens, UniProt P41743) | 92 |
| Phosphatidylinositol 4,5-bisphosphate 3-kinase catalytic subunit gamma isoform (PIK3CG, Homo sapiens, UniProt P48736) | 99 |
| Interleukin-1 receptor-associated kinase 3 (IRAK3, Homo sapiens, UniProt Q9Y616) | 85 |
| Hepatocyte growth factor receptor (MET, Homo sapiens, UniProt P08581, Y1235D) | 100 |
| Homeodomain-interacting protein kinase 2 (HIPK2, Homo sapiens, UniProt Q9H2X6) | 79 |

Series 4 — action: inhibitor
Structure (SMILES): Cc1nc(Nc2ncc(C(=O)Nc3c(C)cccc3Cl)s2)cc(N2CCN(CCO)CC2)n1
| target | setting | inhibition |
| --- | --- | --- |
| Serine/threonine-protein kinase PAK 1 (PAK1, Homo sapiens, UniProt Q13153) | 1 µM | < 50% |
| Bone morphogenetic protein receptor type-1A (BMPR1A, Homo sapiens, UniProt P36894) | 10 µM | 76% |
| Angiopoietin-1 receptor (TEK, Homo sapiens, UniProt Q02763) | 10 µM | < 50% |
| Serine/threonine-protein kinase TAO3 (TAOK3, Homo sapiens, UniProt Q9H2K8) | 10 µM | < 50% |
| Serine/threonine-protein kinase STK11 (STK11, Homo sapiens, UniProt Q15831) | 10 µM | < 50% |
| Casein kinase I isoform gamma-2 (CSNK1G2, Homo sapiens, UniProt P78368) | 10 µM | < 50% |
| Serine/threonine-protein kinase BRSK1 (BRSK1, Homo sapiens, UniProt Q8TDC3) | 10 µM | < 50% |
| Serine/threonine-protein kinase 17B (STK17B, Homo sapiens, UniProt O94768) | 10 µM | < 50% |
| Tyrosine-protein kinase TXK (TXK, Homo sapiens, UniProt P42681) | 10 µM | 100% |
| Fibroblast growth factor receptor 2 (FGFR2, Homo sapiens, UniProt P21802) | 1 µM | < 50% |

Excerpt of the above (series 2):
| Structure (SMILES) | viability [%] |
| --- | --- |
| Nc1ccn([C@@H]2O[C@H](CO)[C@@H](O)[C@@H]2O)c(=O)n1 | 50.4 |
| Nc1nc2nc[nH]c2c(=S)[nH]1 | 68.6 |
| Cc1cc2nc3c(=O)[nH]c(=O)nc-3n(C[C@H](O)[C@H](O)[C@H](O)CO)c2cc1C | 101 |
